# Experimental data gathered from unrelated publications.
# Numbers after ± are the reported error.
SMILES,test,system,setting,measurement,result
O=C(O)c1cccc(C(=O)O)c1,,betaine/glycerol DES-water,DES mass fraction 0.40,apparent dissolution enthalpy,3 kcal/mol
COc1cc(Nc2ncc3c(n2)-c2ccc(Cl)cc2C(c2c(F)cccc2OC)=NC3)ccc1C(=O)O,population PK modelling,"cancer patients, plasma","oral, dose not given",apparent peripheral volume (V2/F),27.4 L
Cc1c(C(=O)O)ccc2c3n(nc12)[C@@H]1[C@H](C3)N(CC2CC2)[C@@]2(C(=O)Nc3cc(Cl)ccc32)[C@H]1c1cccc(Cl)c1F,,"cancer patients, plasma","oral, 45 mg every 3 weeks, geometric mean",apparent clearance CL/F,7.34 mL/min
N[C@@H](CC(=O)N1CCc2c(nc(C(F)(F)F)nc2C(F)(F)F)C1)CN1CC(F)(F)CCC1=O,,"healthy Korean adults, fasted, plasma","oral, 50 mg single dose, separate tablets, added: enavogliflozin 0.3 mg",apparent volume Vd/F,965 ± 191 L
C=CC(=O)NC1CCN(c2ncc3ncnc(Nc4ccc(Oc5ccc6c(c5)ncn6C)c(C)c4)c3n2)CC1,,"healthy male volunteers, plasma","oral, 60 mg, unlabelled tablet",apparent clearance CL/F,139 mL/min
CC[C@H](C)[C@H](NC(=O)[C@H](Cc1ccccc1)NC(=O)[C@H](CCC(=O)O)NC(=O)[C@H](CCCCNC(=O)COCCOCCNC(=O)COCCOCCNC(=O)CC[C@H](NC(=O)CCCCCCCCCCCCCCCCC(=O)O)C(=O)O)NC(=O)[C@H](C)NC(=O)[C@H](C)NC(=O)[C@H](CCC(N)=O)NC(=O)CNC(=O)[C@H](CCC(=O)O)NC(=O)[C@H](CC(C)C)NC(=O)[C@H](Cc1ccc(O)cc1)NC(=O)[C@H](CO)NC(=O)[C@H](CO)NC(=O)[C@@H](NC(=O)[C@H](CC(=O)O)NC(=O)[C@H](CO)NC(=O)[C@@H](NC(=O)[C@H](Cc1ccccc1)NC(=O)[C@@H](NC(=O)CNC(=O)[C@H](CCC(=O)O)NC(=O)C(C)(C)NC(=O)[C@@H](N)Cc1cnc[nH]1)[C@@H](C)O)[C@@H](C)O)C(C)C)C(=O)N[C@@H](C)C(=O)N[C@@H](Cc1c[nH]c2ccccc12)C(=O)N[C@@H](CC(C)C)C(=O)N[C@H](C(=O)N[C@@H](CCCNC(=N)N)C(=O)NCC(=O)N[C@@H](CCCNC(=N)N)C(=O)NCC(=O)O)C(C)C,,type 2 diabetes patients,"subcutaneous, once weekly base model",apparent clearance,0.048 L/h
CC1(C)CCC(CN2CCN(c3ccc(C(=O)NS(=O)(=O)c4ccc(NCC5CCOCC5)c([N+](=O)[O-])c4)c(Oc4cnc5[nH]ccc5c4)c3)CC2)=C(c2ccc(Cl)cc2)C1,final population PK model,"AML patients, plasma",oral,apparent intercompartmental clearance (Q/F),93.1 L/day
CC#CC(=O)N1CCC[C@H]1c1nc(-c2ccc(C(=O)Nc3ccccn3)cc2)c2c(N)nccn12,population pharmacokinetics,patients,"oral, dose not given",apparent peripheral volume (Vp/F),110 L
Cc1cc(/C=C/C#N)cc(C)c1Nc1ccnc(Nc2ccc(C#N)cc2)n1,,octanol-water,room temperature,apparent logP,1.22 ± 0.25
COc1cc(N2CCC(N3CCN(C)CC3)CC2)ccc1Nc1ncc(Cl)c(Nc2ccccc2P(C)(C)=O)n1,,healthy subjects,oral,apparent oral clearance,13.5 L/h
OC[C@H]1O[C@@H](c2cc(Cc3ccc(C4CC4)cc3)c(Cl)c3c2CCO3)[C@H](O)[C@@H](O)[C@@H]1O,,"healthy Korean adults, fasted, plasma","oral, 0.3 mg single dose, fixed-dose combination tablet, added: co-administered drug 50 mg",apparent volume Vd/F,143 ± 30.5 L
C[C@@H]1CCO[C@H]2Cn3cc(C(=O)NCc4ccc(F)cc4F)c(=O)c(O)c3C(=O)N12,population PK model,children,,apparent clearance (CL/F),1.03 L/h
CCCCCCCCCCCCCCCC(=O)N[C@@H](CCC(=O)NCCCC[C@H](NC(=O)[C@H](C)NC(=O)[C@H](C)NC(=O)[C@H](CCC(N)=O)NC(=O)CNC(=O)[C@H](CCC(=O)O)NC(=O)[C@H](CC(C)C)NC(=O)[C@H](Cc1ccc(O)cc1)NC(=O)[C@H](CO)NC(=O)[C@H](CO)NC(=O)[C@@H](NC(=O)[C@H](CC(=O)O)NC(=O)[C@H](CO)NC(=O)[C@@H](NC(=O)[C@H](Cc1ccccc1)NC(=O)[C@@H](NC(=O)CNC(=O)[C@H](CCC(=O)O)NC(=O)[C@H](C)NC(=O)[C@@H](N)Cc1cnc[nH]1)[C@@H](C)O)[C@@H](C)O)C(C)C)C(=O)N[C@@H](CCC(=O)O)C(=O)N[C@@H](Cc1ccccc1)C(=O)N[C@H](C(=O)N[C@@H](C)C(=O)N[C@@H](Cc1c[nH]c2ccccc12)C(=O)N[C@@H](CC(C)C)C(=O)N[C@H](C(=O)N[C@@H](CCCNC(=N)N)C(=O)NCC(=O)N[C@@H](CCCNC(=N)N)C(=O)NCC(=O)O)C(C)C)[C@@H](C)CC)C(=O)O,"population PK, full model","adult and pediatric type 2 diabetes, plasma","subcutaneous, dose not given",apparent volume of distribution (V/F),15.3 L
O=C(c1cccnc1-c1ccncc1)N1CCC(O)(Cc2ccccc2)CC1,population PK model,healthy adults,"oral, dose not given",apparent central volume,65.5 L
CNC(=O)c1c(C)oc2cc(Oc3ncnc4cc(OC)c(OC)cc34)ccc12,final population PK model,subject weighing 70 kg,"oral, dose not given",apparent volume of distribution,48.5 L
